Experimental data gathered from unrelated publications.
Compare with care: the assays were run in different laboratories. Numbers after ± are the reported error.

SMILES = CNC(=O)c1ccc(-c2cnc3ncc(Cc4ccc5ncccc5c4)n3n2)cc1F; test system = human, moderate hepatic impairment (Child-Pugh B), plasma; setting = oral, 200 mg single dose; endpoint = Tmax (median); result = 1.25 h
SMILES = CNCc1ccc(-c2[nH]c3cc(F)cc4c3c2CCNC4=O)cc1; test system = human, plasma; setting = oral, 300 mg, fasted, median; endpoint = Tmax; result = 4.09 h
SMILES = O=C(c1cccnc1-c1ccncc1)N1CCC(O)(Cc2ccccc2)CC1; test system = healthy human, plasma; setting = oral, 400 mg once daily, day 1; endpoint = tmax; result = 0.33 h
SMILES = COc1ccnc(C[S+]([O-])c2nc3ccc(OC(F)F)cc3[nH]2)c1OC (centres unmarked); assay = HPLC; test system = human CYP2C19 poor metabolizers, plasma; setting = oral, 40 mg/day, day 1, esomeprazole; endpoint = Tmax; result = 4.67 ± 1.15 h
SMILES = CS(=O)(=O)Nc1ccc(C(=O)O[C@@H](Cc2c(Cl)c[n+]([O-])cc2Cl)c2ccc(OC(F)F)c(OCC3CC3)c2)cc1OCC1CC1; test system = human, plasma; setting = inhaled, 800 µg single dose, single-dose dry powder inhaler; endpoint = tmax; result = 2 h
SMILES = O=C(Cc1cccc(OC(F)(F)F)c1)Nc1ccc(CCCCc2nnc(NC(=O)Cc3ccccn3)s2)nn1; test system = human; setting = oral, 600 mg twice daily, fed, steady state, cycle 1 day 15; endpoint = Tmax; result = 4 h
SMILES = CN(Cc1cnc2nc(N)nc(N)c2n1)c1ccc(C(=O)N[C@@H](CCC(=O)O)C(=O)O)cc1; test system = human, plasma; setting = oral, 10 mg, added: apremilast 30 mg twice daily; endpoint = tmax; result = 0.98 h
SMILES = O=C(O)COC[C@H]1CC[C@H](COC(=O)N(c2ccccc2)c2ccc(Cl)cc2)CC1; test system = human; setting = oral, 400 µg once daily, day 21; endpoint = Tmax at steady state; result = 8 h
SMILES = Cc1nc(-c2ccc(OCC(C)C)c(C#N)c2)sc1C(=O)O; test system = human adults, plasma; setting = oral, 10 to 160 mg once daily, fed, PopPK post hoc; endpoint = Tmax at steady state; result = 1.46 ± 0.84 h
SMILES = CCOc1c([C@H](C)n2nc(C)c3c(N)ncnc32)cc(Cl)c(F)c1[C@@H]1CNC(=O)C1; test system = healthy fasted humans, plasma; setting = oral, 20 mg; endpoint = Tmax median; result = 1 h
SMILES = Cc1ccc(NC(=O)c2ccc(CN3CCN(C)CC3)cc2)cc1Nc1nccc(-c2cncc(-c3oncc3C)c2)n1; test system = older healthy human adults, plasma; setting = oral, 100 mg single dose, fed, mean; endpoint = Tmax; result = 4.33 h
SMILES = Cc1c(Cl)c(C)[n+]([O-])c(Cl)c1-c1noc(-c2cc(O)c(O)c([N+](=O)[O-])c2)n1; assay = LC-MS/MS; test system = healthy male human, fasted, plasma; setting = oral, 25 mg single dose, capsule; endpoint = Tmax (median); result = 1.5 h
SMILES = COc1ccc2nc([S@@+]([O-])Cc3ncc(C)c(OC)c3C)[nH]c2c1; assay = HPLC; test system = human CYP2C19 poor metabolizers, plasma; setting = oral, 40 mg/day, day 1, pantoprazole; endpoint = Tmax; result = 3.6 ± 0.89 h
SMILES = CC(C)NC[C@@H](C(=O)N1CCN(c2ncnc3c2[C@H](C)C[C@H]3O)CC1)c1ccc(Cl)cc1; test system = human, Moderate hepatic function (Child-Pugh), plasma; setting = oral, 100 mg single dose, median; endpoint = Tmax; result = 0.5 h

Some of these lines once more:
SMILES = Cc1ccc(NC(=O)c2ccc(CN3CCN(C)CC3)cc2)cc1Nc1nccc(-c2cncc(-c3oncc3C)c2)n1; test system = older healthy human adults, plasma; setting = oral, 100 mg single dose, fed, mean; endpoint = Tmax; result = 4.33 h
